Published values collected from several papers.
A part holds a random share of what one study measured.

Series 1
Target: Sox-I, HMG box (Salpingoeca helianthica)
Method: Spec-seq
Form: double-stranded DNA, one strand shown
Medium: in vitro
Tested at: not given
Notes: whole probe, mean of replicates
Relative to: not given
Reading: lower = stronger binding
Shared flanks, not repeated: GAGTCGTCTCGTCAGCAC … CCGTAGAGCACTCAGGTC
Target sequence (chain): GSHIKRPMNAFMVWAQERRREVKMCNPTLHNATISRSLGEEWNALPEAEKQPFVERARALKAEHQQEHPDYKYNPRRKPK
Strand | relative binding energy
TGTAGTT | 0.17 ln ratio
GCGTGTT | 0.569 ln ratio
GGCGGTT | 1.13 ln ratio
TTTGGTT | 0.701 ln ratio
TGCTGTT | -0.617 ln ratio
GTAGGTT | 0.992 ln ratio
CATTAAC | 0.213 ln ratio
AAAGGTT | -1.91 ln ratio
CATATAC | 0.324 ln ratio
CATGTGG | 1.25 ln ratio
ATAAGTT | -0.3 ln ratio
CATCGTT | 0.619 ln ratio
CATAAGG | 0.28 ln ratio
CATATTC | 0.312 ln ratio
GGTAGTT | 0.764 ln ratio
CATTCAC | 0.078 ln ratio
CATACCA | 0.367 ln ratio
CATATCG | 0.746 ln ratio
ACAAGTT | -0.419 ln ratio
CATAAAG | -0.503 ln ratio
CATAATT | -0.34 ln ratio
CATATGG | 0.795 ln ratio
CATCATT | 0.149 ln ratio
CTCCGTT | 0.512 ln ratio
CATGTCG | 1.08 ln ratio

Series 2
Target: RNA binding protein fox-1 homolog 2, RRM domain, GST-SBP tag (RBFOX2, Homo sapiens, UniProt O43251-10, residues 100-194)
Method: RNA Bind-n-Seq
Form: RNA
Medium: in vitro
Tested at: 365 nM
Notes: natural RNA segment, single round, ends assumed
Relative to: no-protein control
Reading: higher = stronger binding
Shared flanks, not repeated: GGGAGUUCUACAGUCCGACGAUC … UGGAAUUCUCGGGUGCCAA
Target sequence (chain): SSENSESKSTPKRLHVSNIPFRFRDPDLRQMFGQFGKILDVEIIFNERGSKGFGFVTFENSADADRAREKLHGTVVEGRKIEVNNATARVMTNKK
Strand | RBNS enrichment (R)
AUAAACAUUUUAUUAUGAUGGUGCUAGGUACAAAAUUUAUAGCAUGGGAUGUGAAGAAAAAAAAUGAGAACCCAUUGAAAGGAAGAAAGGAAUUUGUUGUCUGCUUCUAA | 5.61
GAAGUUUGUCAAUGACUGAAAUGCGAGCAGUGUCACCCAGAGUUGUGGUCAGCCUUACCCCUUCUCCGAGAACAAGCAGAGCGCUCUAUUUUUAACUAUGUUACACUCGU | 0.31
UUGGAUUCUAGUUGUGGUUUGAAUGCAGCAGUGUACUCUUGAAGUAAGCAGGCAAGGGUCACUGCAGGCAUGAAGCUUGGAUUGCUUCAGAUGGUUUGCCGUAUCGUUUU | 3.7
GGCCGUGGCACUGGUGCCAGUACUUUGAAAGAUGGGGUGCAGCCUACACACUUACCUGUCUCAGACUCACAUGUACUAUCAUCUGAUGUACUCUGAUUGGCUAGUUUGGG | 0.24
CCAUGGGGUUUGGGUGCAGGGGCAUGGCACCCUUUCCUGUCGGGAAGGGAGAGGGGAACUACCCCCCCAGCCUGCCCUCCGCCCCGCCCCAGCCGGCGGACUGUGCUGUU | 0.278
AAGCAUGAUAAUCCUUUUUUUUGCAAGUGUAAACGACAGUCUGGACUCUUAACUUCUUAGUGCCUCAGUUUUCCUUUGGGGUAUACUUCACAAGGUAUCAGAAGUACUUU | 1.18
AUUGUGUUGGGUGUGGGUGGUCUCCAAGGCCACGCUGCUCUCUGAAUUGAUUUUUUGAGUUUUGUUUGUAAGAUGAUCACAGUCAUGUUACACUGAUCUAAAGGACAUAU | 0.251
CAACAUAGAUUCCAUGAUCUUUUUAAUGACAGUACAGACUGAGAUUUGAAGGAAACAUGCACAAAUCUGUAAAACAUAGACCUUCGCUUUAUUUUUGUAAGUAUCACCUG | 0.274
UAAAUCUAGGAUGUGAUGAUGACUUUGUAAUUUGAUUUUCUGAAAUCAGACCCUGAGAGGGGAAAAUCUUAAAGUAAAUUACAUUAAAUUAUCUGUGCAUUUCACACCAG | 0.254
GGGGCAUCAGCUCUGGUGUCCCUGAGAGACGAGAAGCCUGUGGGAACGACAGAAGAACAUGGCAUUUUUAUAAAUUAUUUUUUUGAAAUAAAUCUCUGUGUGCCUGGUGG | 0.72
GUUUUGAGCAUGGCUAGUGGAUUUACAACAACACAUGCCUGUCACUGCUGGAGUCAGACUUACAAAAGCCUUAAGCGGAAAGUGUCCAGACCAGGCUGAGUCAGUAAAGG | 0.893
AUUCUAUUAAGAUACAAUAGCUAAAGUUGGGGAAUAACUUCAGGUAAAAACUGCAAGUCUUGAAGAUUUUUGGCAUUCUUUUAAGUAUUUAAACUUAAUCUUUAUAGCUG | 0.397

Series 3
Target: RING finger protein unkempt homolog, zinc fingers 1-6, GST-SBP tag (UNK, Homo sapiens, UniProt Q9C0B0, residues 30-357)
UniProt Q9C0B0, sequence (30-357, looked up): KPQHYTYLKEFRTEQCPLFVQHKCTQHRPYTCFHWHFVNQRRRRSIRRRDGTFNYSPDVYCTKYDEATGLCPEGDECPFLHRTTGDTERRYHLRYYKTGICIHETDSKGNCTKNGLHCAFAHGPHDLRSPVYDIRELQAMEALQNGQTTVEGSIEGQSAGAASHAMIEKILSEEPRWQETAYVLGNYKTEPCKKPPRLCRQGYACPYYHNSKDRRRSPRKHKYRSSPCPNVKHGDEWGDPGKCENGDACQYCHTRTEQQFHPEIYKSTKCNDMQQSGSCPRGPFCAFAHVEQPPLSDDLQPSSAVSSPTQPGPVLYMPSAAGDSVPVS
Method: RNA Bind-n-Seq
Form: RNA
Medium: in vitro
Tested at: not given
Notes: RNA with constant flanks, human and mouse sites, ends assumed
Relative to: input RNA pool
Reading: higher = stronger binding
Shared flanks, not repeated: GGGAGUUCUACAGUCCGACGAUC … CAACAGAGGAUUGAGCAUCA
Strand | bound/input enrichment [ratio]
AAGAUGUGAAAUUUGUCAUCAAUUAUGACUACCCUAACUCCUCAGAGGAUUAUAUUCAUCGAAUUGGAAGAACUGCUCGCAGUACCAAAACAGGCACAGCAUACACUUUCUUUACACCUA | 0.282
GUGCAUUCUCCUCACGCUAUUGUGAGGAUGAAGUUUCUGCUGCUGCAGCAGAAGUACCUGGAAUACCUGGAGGACGGCAAGGUCCUGGAGGCACUUCAAGUUCUACGCUGCGAACUGACG | 0.116
GACGCCUCAGAUUUUGAGCAUAUCACUGCAGACACCCCGUCUCGGCCCCUGUCAGCCACUAGCAACCCUUUUAAGAGCUCCAAGGGCUCCCCUACUGGGAGCUCCCCAAACAAUGCAAGU | 0.699
CCUGAAAAUGAAAAGGAAGCUUCAGGUGGAGACAGCCCGAAGGAUGAUUCAAAGCCGCCUUACUCCUACGCGCAGCUGAUAGUUCAGGCGAUUACGAUGGCUCCCGACAAACAGCUCACC | 0.108
GCUUCCCCGGGGUGACCGCGACUUGUUGGAGAUCUGAUGGCCAAAAGAAAGGAAGAAAAUUUCUGCUCUCCUGAAAAUGCUAAAAGACCAAGACAAGAAGAACUGGAAGAUUUUGAUAAA | 0.162
GACUCCGCGGGGAGGGCAGUAGAGGACGGUCUGAUGUUACAGGAUUUGGUUUCAGCCAAGCUGAUUUCCGAUUACAUUGUUGUUGAGAUUCCUGACUCUGUUAAUGAUUUACAAGGCACA | 0.283
GUACUGCAGCAGCAGGGAAAACUGCAGGAAGCUCUGAUGCAUUAUAAGGAGGCUAUUCGAAUCAGUCCUACCUUUGCUGAUGCCUACUCUAAUAUGGGAAACACUCUAAAGGAGAUGCAG | 0.183
GGAAACGGACUUUUUGGUGAAGAAACCCAAACGGUUGAUGCCAGGCAGGGUGAUUUGGCCGUCAAAGGUUUUGACGAAACCUGCCCUGUUCUCUCUGGGGAAUCCGAAUGAGGGAGAUCA | 0.134
UCUGAAACACCUCAAGAAACGUACAGAAAAGUGAUGAACUGGAAAGAAACUCUGGUAUUUCCUCCAGAGGUACCUAUAUCUGAGAAAGCCAAGGACUUAAUUCUCAGAUUUUGUAUUGAU | 0.129
CUCCUGUAAUCACUUUUGGAGGGCUGCUUGGAGAAGCUACAGAAGGCAGAAUAAGUGCAAUAGAGUCUCUUUUUGGAGCGUCAUUAACUGGGAUUGCCUAUUCAUUGUUUGCUGGGCAAC | 0.218
CGAGUGGAUCAGGGGGCUGCAACAGCUCUCAGAAAGGAGAAUACCAGCAACAUCUUUUAUAGCAAAAAUACUGACUAUCCUGAACUUCAGCAGCAAAACACAGAUUCAAAUUACCAGACC | 0.755

Series 4
Target: Interferon regulatory factor 7, full length, phosphomimetic (IRF7, Homo sapiens, UniProt Q92985, residues 1-503, S101K/S471D/S472D/S475D/S476D/S477D/S483D/S484D/S487D)
Method: protein-binding microarray
Form: double-stranded DNA, one strand shown
Medium: in vitro
Tested at: 250 nM
Notes: 60-bp whole probe
Together with: salmon DNA 0.4 mg/ml
Relative to: random background probes
Reading: higher = stronger binding
Shared flanks, not repeated: GCCTAGCAC … GTCTTGATTCGCTTGACGCTGCTG
Target sequence (chain): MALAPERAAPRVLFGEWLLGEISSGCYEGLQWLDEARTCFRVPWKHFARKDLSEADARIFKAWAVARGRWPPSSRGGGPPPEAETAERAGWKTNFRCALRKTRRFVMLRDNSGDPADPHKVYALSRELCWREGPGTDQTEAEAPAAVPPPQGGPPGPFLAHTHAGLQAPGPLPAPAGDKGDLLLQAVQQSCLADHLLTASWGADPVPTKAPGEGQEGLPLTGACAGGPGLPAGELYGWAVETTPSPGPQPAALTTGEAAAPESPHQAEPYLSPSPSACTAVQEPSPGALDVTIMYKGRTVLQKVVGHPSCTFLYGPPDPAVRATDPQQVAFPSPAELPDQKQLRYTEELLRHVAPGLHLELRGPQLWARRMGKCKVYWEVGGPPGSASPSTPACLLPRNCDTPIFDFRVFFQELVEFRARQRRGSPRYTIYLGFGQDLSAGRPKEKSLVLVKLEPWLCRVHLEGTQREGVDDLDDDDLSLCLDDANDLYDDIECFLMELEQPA
Strand | log fluorescence [z-score]
TCACTCTGCTCTTTTCAAACTGTGCTA | 0.294
TTAGGTATCGGTATCGGTTAGTGCTAG | 2.87
TTATCAATCATTTTAGTTTTGTGCTAG | 0.653
TCATATATATTTATGTAACTGTGCTAG | 0.452
TTAGGTAGCGGGTATCGGTTAGTGCTA | -0.0282
GACGAACTGGGGTATCGAGAAGTGCTA | -0.232
TTAGATTTCAGTTCAGATTAGTGCTAG | 0.798
TTAGGTTTCGCCTTTCGGTTAGTGCTA | 8.38
TTAGATCTGAGTTTCGATTAGTGCTAG | 7.34
TTAGGTTTCGGTTCCGGCTAGTGCTAG | 12.3
TTAGATTTCCGGTATCGATTAGTGCTA | 1.95
GACGGACTGGACACTGGGGAGGTGCTA | -0.683
TTAGGATTCGGTTCCGGTTAGTGCTAG | 5.95
TTAGGAATCGGTCTCGGTTAGTGCTAG | 2.09
AACGGACTGCTTTTCCTGACGTGCTAG | 0.255
TTAGGTTTCCTTCTCTTTTAGTGCTAG | 2.94
CACGATATCGGGACTGGAGACGTGCTA | 0.0757
GACGATATCGGGTTACGAGACGTGCTA | 0.22
AACGGTTTCGACACTGGGGACGTGCTA | 4.04
TTACAGCTATTTTTAGGATGGTGCTAG | -0.386
TTAGGTAACGGTATCGGTTAGTGCTAG | 1.47

For quick reference, copied from above (series 4):
Strand | log fluorescence [z-score]
TTAGGTAGCGGGTATCGGTTAGTGCTA | -0.0282
GACGAACTGGGGTATCGAGAAGTGCTA | -0.232
TTAGATTTCAGTTCAGATTAGTGCTAG | 0.798
TTAGGTTTCGCCTTTCGGTTAGTGCTA | 8.38
